Measured values from different studies.
Protocols differ between the studies behind these lines. “And” joins repeats or separate records; there may be more than shown. ± marks the error that the study gave.
UniProt Q01959, sequence (whole entry, unmodified, looked up): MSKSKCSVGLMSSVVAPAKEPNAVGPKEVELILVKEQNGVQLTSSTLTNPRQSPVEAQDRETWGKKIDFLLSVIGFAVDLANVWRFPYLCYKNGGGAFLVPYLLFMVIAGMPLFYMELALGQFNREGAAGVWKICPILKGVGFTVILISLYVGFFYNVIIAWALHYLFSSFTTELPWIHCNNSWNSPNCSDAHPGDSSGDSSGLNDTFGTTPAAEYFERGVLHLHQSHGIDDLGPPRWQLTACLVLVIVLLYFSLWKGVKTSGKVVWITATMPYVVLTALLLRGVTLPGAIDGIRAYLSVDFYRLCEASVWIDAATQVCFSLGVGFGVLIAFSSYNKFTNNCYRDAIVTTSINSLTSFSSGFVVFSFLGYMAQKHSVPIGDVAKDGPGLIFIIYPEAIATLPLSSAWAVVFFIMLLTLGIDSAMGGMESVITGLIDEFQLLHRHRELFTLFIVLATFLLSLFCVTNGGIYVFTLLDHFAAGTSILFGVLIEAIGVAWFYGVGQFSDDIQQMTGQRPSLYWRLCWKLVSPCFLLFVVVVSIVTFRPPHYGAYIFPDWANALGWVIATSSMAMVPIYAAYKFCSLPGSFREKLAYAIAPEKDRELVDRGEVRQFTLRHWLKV
UniProt Q8NET8, sequence (whole entry, unmodified, looked up): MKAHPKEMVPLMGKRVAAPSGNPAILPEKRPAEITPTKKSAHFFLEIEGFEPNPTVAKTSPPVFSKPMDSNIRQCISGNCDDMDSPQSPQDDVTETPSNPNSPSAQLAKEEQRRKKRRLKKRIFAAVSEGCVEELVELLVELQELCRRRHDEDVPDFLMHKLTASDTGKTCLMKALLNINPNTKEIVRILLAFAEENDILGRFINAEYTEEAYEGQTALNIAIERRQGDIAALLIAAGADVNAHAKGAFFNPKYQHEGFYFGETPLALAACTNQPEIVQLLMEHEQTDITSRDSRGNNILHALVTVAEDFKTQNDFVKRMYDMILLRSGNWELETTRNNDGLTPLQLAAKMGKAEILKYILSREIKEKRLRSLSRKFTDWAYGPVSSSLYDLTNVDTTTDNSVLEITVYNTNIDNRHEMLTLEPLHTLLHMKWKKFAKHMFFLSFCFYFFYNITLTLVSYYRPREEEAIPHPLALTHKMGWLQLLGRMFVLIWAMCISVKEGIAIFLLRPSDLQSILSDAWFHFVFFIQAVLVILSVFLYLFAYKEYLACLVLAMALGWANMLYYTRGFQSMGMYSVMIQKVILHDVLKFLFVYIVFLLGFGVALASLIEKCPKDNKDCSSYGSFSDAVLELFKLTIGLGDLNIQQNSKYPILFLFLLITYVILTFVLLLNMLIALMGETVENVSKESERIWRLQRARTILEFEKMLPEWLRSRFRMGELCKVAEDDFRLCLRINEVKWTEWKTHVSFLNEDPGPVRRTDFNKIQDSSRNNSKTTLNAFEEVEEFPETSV
UniProt Q14164, sequence (whole entry, looked up): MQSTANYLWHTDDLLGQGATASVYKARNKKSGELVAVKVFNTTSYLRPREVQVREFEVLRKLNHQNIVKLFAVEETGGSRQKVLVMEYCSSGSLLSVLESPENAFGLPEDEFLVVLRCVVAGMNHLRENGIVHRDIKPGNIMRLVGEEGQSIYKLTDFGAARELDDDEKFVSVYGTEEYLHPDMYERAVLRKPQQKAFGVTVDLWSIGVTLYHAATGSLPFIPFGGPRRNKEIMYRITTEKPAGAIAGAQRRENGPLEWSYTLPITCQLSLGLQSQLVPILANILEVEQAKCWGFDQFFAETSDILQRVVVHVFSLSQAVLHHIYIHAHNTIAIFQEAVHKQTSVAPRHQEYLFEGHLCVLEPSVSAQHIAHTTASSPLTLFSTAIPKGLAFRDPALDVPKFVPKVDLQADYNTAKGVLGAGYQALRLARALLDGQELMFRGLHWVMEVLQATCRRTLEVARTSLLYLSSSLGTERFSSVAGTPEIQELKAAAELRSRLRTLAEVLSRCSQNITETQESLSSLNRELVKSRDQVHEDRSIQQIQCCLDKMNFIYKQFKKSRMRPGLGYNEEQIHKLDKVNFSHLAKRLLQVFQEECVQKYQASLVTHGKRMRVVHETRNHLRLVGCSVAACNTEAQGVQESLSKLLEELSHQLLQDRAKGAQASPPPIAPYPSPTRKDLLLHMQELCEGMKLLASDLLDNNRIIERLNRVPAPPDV
UniProt P50052, sequence (whole entry, looked up): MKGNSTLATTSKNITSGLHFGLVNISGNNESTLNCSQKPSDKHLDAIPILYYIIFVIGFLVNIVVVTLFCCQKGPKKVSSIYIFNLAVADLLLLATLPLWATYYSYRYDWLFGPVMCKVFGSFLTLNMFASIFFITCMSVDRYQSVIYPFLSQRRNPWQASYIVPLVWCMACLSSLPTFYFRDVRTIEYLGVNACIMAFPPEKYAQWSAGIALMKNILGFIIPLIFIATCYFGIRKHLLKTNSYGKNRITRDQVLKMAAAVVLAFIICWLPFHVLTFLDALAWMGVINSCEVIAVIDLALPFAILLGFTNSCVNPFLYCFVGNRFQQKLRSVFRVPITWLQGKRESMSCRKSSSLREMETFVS
UniProt P48047, sequence (whole entry, looked up): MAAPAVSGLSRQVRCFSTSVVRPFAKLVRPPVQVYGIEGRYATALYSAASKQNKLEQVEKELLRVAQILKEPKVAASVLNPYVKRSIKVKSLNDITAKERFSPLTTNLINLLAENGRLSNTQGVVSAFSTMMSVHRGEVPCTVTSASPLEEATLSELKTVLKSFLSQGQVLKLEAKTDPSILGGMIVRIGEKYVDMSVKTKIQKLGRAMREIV
UniProt Q96GS6, sequence (whole entry, looked up): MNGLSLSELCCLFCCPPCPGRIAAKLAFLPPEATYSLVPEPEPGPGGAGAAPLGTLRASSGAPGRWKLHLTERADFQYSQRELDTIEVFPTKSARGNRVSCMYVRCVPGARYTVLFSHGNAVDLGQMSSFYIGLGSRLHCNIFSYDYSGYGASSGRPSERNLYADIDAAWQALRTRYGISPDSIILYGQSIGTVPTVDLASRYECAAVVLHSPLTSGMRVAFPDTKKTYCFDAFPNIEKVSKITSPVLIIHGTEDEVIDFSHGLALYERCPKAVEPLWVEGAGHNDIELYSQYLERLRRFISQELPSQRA
UniProt P28335, sequence (whole entry, looked up): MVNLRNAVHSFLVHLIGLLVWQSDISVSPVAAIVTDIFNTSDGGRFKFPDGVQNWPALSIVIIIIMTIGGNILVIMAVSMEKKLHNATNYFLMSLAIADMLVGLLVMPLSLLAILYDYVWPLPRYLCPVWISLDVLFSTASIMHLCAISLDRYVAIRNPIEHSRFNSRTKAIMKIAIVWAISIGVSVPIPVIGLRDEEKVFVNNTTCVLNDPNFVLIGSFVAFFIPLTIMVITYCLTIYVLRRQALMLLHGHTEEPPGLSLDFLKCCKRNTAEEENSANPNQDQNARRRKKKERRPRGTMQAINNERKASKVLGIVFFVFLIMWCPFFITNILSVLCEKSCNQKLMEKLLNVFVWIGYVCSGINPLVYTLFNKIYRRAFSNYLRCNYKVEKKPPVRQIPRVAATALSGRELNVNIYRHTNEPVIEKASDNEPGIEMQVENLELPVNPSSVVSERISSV
UniProt Q8NDV2, sequence (whole entry, looked up): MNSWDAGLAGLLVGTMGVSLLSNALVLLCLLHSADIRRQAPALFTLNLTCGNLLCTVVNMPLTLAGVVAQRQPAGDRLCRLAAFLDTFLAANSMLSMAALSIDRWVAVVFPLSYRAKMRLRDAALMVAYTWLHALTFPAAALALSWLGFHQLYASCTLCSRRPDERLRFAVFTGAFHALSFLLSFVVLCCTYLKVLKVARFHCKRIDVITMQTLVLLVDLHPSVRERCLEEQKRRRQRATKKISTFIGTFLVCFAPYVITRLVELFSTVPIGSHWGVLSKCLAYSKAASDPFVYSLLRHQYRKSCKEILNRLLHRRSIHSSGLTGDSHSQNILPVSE
UniProt P9WKI7, sequence (whole entry, looked up): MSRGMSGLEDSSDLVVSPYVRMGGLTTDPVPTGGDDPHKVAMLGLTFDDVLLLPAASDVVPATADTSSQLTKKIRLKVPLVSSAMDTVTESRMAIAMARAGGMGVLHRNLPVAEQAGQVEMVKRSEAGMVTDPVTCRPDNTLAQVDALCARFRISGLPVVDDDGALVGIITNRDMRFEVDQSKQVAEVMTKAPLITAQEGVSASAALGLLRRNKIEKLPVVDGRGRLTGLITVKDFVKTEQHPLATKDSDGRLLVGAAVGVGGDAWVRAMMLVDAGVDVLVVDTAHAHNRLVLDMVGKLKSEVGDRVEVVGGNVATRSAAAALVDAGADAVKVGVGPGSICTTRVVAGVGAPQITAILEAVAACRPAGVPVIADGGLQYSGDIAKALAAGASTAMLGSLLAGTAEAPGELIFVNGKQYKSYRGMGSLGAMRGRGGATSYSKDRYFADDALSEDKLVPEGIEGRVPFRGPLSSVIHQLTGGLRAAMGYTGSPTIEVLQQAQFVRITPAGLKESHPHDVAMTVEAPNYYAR
UniProt P08172, sequence (whole entry, looked up): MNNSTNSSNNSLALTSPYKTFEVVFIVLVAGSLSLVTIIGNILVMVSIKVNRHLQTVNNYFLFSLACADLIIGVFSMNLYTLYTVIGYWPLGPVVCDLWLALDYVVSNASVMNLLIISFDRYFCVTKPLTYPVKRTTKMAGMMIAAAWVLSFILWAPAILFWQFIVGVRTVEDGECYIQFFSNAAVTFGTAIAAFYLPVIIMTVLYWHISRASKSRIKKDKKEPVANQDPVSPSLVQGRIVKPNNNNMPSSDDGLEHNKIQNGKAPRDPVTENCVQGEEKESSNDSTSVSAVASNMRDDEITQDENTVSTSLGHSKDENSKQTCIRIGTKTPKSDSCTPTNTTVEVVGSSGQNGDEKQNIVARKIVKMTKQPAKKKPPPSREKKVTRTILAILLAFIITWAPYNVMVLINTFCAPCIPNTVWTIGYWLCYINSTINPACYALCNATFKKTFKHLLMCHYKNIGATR

Structure (SMILES) | target or system | assay | system | setting | how to read | endpoint | value
COc1ccc(N2C(=O)N(c3c(C)cccc3Cl)Cc3cnc(Nc4ccc(C5CCN(C)CC5)cc4OC)nc32)nc1 | IKBKE (Homo sapiens, UniProt Q14164) | kinase activity, inhibitor | – | 0.5 µM, kinase IKK-EPSILON | – | inhibition | 1.74%
COc1cc(CCNC(C)c2ccccc2O)c(OC)cc1C#N (single isomer, unassigned; (-)) | HTR2C (Homo sapiens, UniProt P28335) | calcium flux, agonist | – | – | baseline: 5-HT | Emax | 98%
Oc1ccc2c3c1O[C@H]1[C@@H](O)CC[C@@]4(O)[C@@H](C2)N(CC2CCC2)CC[C@]314 | G-protein coupled receptor 26 (GPR26, Homo sapiens, UniProt Q8NDV2) | β-arrestin recruitment, TANGO luminescence, refers to: GPR26 | – | concentration not given | baseline: basal luminescence | log2 fold change | 0.006
CN1C(=O)CN=C(c2ccccc2)c2cc(Cl)ccc21 | GABA-A central benzodiazepine site (rat) | radioligand binding | – | concentration not given | – | inhibition | 100%
NC(=O)c1ccc[n+]([C@@H]2O[C@H](COP(=O)([O-])OP(=O)(O)OC[C@H]3O[C@@H](n4cnc5c(N)ncnc54)[C@H](O)[C@@H]3O)[C@@H](O)[C@H]2O)c1 | Inosine-5'-monophosphate dehydrogenase (Mycobacterium tuberculosis, UniProt P9WKI7) | substrate | – | – | – | Km | 940 ± 31 µM
CN1CC[C@@]2(C)c3cc(OC(=O)Nc4ccccc4)ccc3N(C)[C@@H]12 | human nicotinic α3β4 receptor | radioligand binding | – | 10 µM, added: [3H]epibatidine | – | inhibition | 12.3%
Nc1ccn([C@H]2C[C@H](O)[C@@H](COP(=O)(O)OP(=O)(O)OP(=O)(O)O)O2)c(=O)n1 | RNA-directed RNA polymerase PB1, with PA and PB2 (Influenza B virus, UniProt Q5V8Y6) | single-nucleotide incorporation, substrate | – | – | – | Vmax | 0.27 product fraction
CO[C@H]1C[C@@H]2CC[C@@H](C)[C@@](O)(O2)C(=O)C(=O)N2CCCC[C@H]2C(=O)O[C@H]([C@H](C)C[C@@H]2CC[C@@H](OC(=O)NCCOCCOCCOCCOCCOCCOCCOCCOCCC(=O)N3CCc4cc(Cn5nc(-c6ccc7oc(N)nc7c6)c6c(N)ncnc65)ccc4C3)[C@H](OC)C2)C[C@@H](O)[C@H](C)/C=C(\C)[C@@H](O)[C@@H](OC)C(=O)[C@H](C)C[C@H](C)/C=C/C=C/C=C/1C | – | – | patients with advanced solid tumours | intravenous, 10 mg weekly, any grade | – | decreased appetite leading to dose reduction | 0%
CC(C)OC(=O)[C@H](C)N[P@](=O)(OC[C@H]1O[C@@H](n2ccc(=O)[nH]c2=O)[C@](C)(F)[C@@H]1O)Oc1ccccc1 | Genome polyprotein, NS5 (GP1, West Nile virus, UniProt Q9Q6P4) | binding | – | – | – | association rate constant | 144 M⁻¹ s⁻¹
CCCc1cc(O)c2c(c1)OC(C)(C)[C@@H]1CCC(C)=C[C@@H]21 | TRPV3 (Homo sapiens, UniProt Q8NET8, E501A) | calcium uptake, agonist | HEK293S | mutant E501A, site 2 | – | Hill coefficient | 2.1 ± 0.05
CN[C@@]1(c2ccccc2Cl)CCCCC1=O | AMPA receptor | radioligand binding, agonist, radioligand displacement | – | 30 µM | – | inhibition | 1%
O=C(c1ccc(Cl)cc1)N1CCN2C(=O)N(OC(=O)N3CCOc4ccccc43)C(=O)C2C1 (stereo not drawn) | Alpha/beta hydrolase domain-containing protein 17A (ABHD17A, Homo sapiens, UniProt Q96GS6) | enzyme activity, inhibitor, MS-based ABPP | SW-620 in situ | 10 µM, 2 h, 37 °C | baseline: compound over DMSO, lower = stronger inhibition | median ratio | 1.1
CC[C@H](C)[C@H](NC(=O)[C@H](Cc1ccccc1)NC(=O)[C@H](CCC(=O)O)NC(=O)[C@H](CCCNC(=N)N)NC(=O)[C@H](C)NC(=O)[C@H](C)NC(=O)[C@H](CCC(N)=O)NC(=O)[C@H](CCC(=O)O)NC(=O)[C@H](CCC(=O)O)NC(=O)[C@H](CC(C)C)NC(=O)[C@H](Cc1ccc(O)cc1)NC(=O)[C@H](CO)NC(=O)[C@H](CO)NC(=O)[C@@H](NC(=O)[C@H](CC(=O)O)NC(=O)[C@H](CO)NC(=O)[C@@H](NC(=O)[C@H](Cc1ccccc1)NC(=O)[C@@H](NC(=O)CNC(=O)[C@H](CCC(=O)O)NC(=O)[C@H](C)NC(=O)CCc1c[nH]cn1)[C@@H](C)O)[C@@H](C)O)C(C)C)C(=O)N[C@@H](C)C(=O)N[C@@H](Cc1c[nH]c2ccccc12)C(=O)N[C@@H](CC(C)C)C(=O)N[C@H](C(=O)N[C@@H](CCCNC(=N)N)C(=O)NCC(=O)N[C@@H](CCCNC(=N)N)C(=O)N[C@@H](CCCCNC(=O)COCCOCCNC(=O)COCCOCCNC(=O)CC[C@H](NC(=O)CCCCCCCCCCCCCCCCC(=O)O)C(=O)O)C(=O)NCC(=O)NCC(=O)N[C@@H](CO)C(=O)N[C@@H](CCCCNc1c(NCCCCCN(O)C(=O)CCC(=O)NCCCCCN(O)C(=O)CCC(=O)NCCCCCN(O)C(C)=O)c(=O)c1=O)C(=O)O)C(C)C [zirconium-89 labelled] | – | – | rat, duodenum | sc, 3 nmol/kg, 72 h, ex vivo | – | tissue uptake | 0.11 %ID/g
C=CCN1CC[C@]23c4c5ccc(O)c4O[C@H]2C(=O)CC[C@]3(O)[C@H]1C5 | HRH2 (Homo sapiens, UniProt P25021) | – | – | concentration not given | – | inhibition | 9.7%
C[C@@H](O)[C@@H](CO)NC(=O)[C@@H](CCCNC(=N)N)NC(=O)[C@@H]1CCCN1C(=O)[C@@H]1CSSC[C@H](NC(=O)[C@H](Cc2ccccc2)NC(=O)CN2CCN(CC(=O)O)CCN(CC(=O)O)CCN(CC(=O)O)CC2)C(=O)N[C@@H](Cc2ccc(O)cc2)C(=O)N[C@@H](Cc2ccccc2)C(=O)N[C@@H](CCC(N)=O)C(=O)N[C@@H](CC(N)=O)C(=O)N1 [gallium-68 labelled] | – | – | Wistar rat, healthy, sublingual gland | intravenous, 8 MBq, 60 min, mean | – | tissue uptake | 0.14 %ID/g
COc1cc(Nc2ncc(F)c(Nc3ccc4c(n3)NC(=O)C(C)(C)O4)n2)cc(OC)c1OC | AGTR2 (Homo sapiens, UniProt P50052) | – | – | – | – | IC50 | > 10 µM
Brc1ccc2c(c1)C(c1ccccn1)=NCc1c(-c3cnco3)ncn1-2 | translocator protein (PBR), rat | radioligand binding | – | added: [3H]PK11195 | baseline: PBR over benzodiazepine site | selectivity ratio | 2.2 fold
C[C@H]1CN(c2n[nH]c3nc(N[C@H]4CC[C@H](NS(=O)(=O)CCC(F)(F)F)CC4)ncc23)CCO1 | ATP synthase peripheral stalk subunit OSCP, mitochondrial (Homo sapiens, UniProt P48047) | Kinobeads competition, refers to: ATP5O | – | 0.032 µM, unit not given | baseline: vehicle | remaining binding | 1.09
Clc1cc(Cl)cc(N2CCNCC2)c1 | CHRM2 (Homo sapiens, UniProt P08172) | ERK1/2 phosphorylation, agonist | CHO cells | – | – | Emax | < 10%
NNc1nc2ccccc2s1 | Alanine aminotransferase 1 (GPT, Sus scrofa, UniProt P13191) | uncompetitive inhibitor, LDH-coupled | – | added: alpha-ketoglutarate 6.25 to 50 µM varied, alanine 10 mM | – | Kiu | 74 ± 8.2 µM
c1ccc2cc([C@]34CNC[C@H]3C4)ccc2c1 | SLC6A3 (Homo sapiens, UniProt Q01959, V152A) | inhibitor, [3H]dopamine uptake | – | 10 nM, V152A mutant | baseline: no inhibitor | dopamine uptake | 81.4% and 86.7% and 72.4%

Repeated from above:
Structure (SMILES) | target or system | assay | system | setting | how to read | endpoint | value
Clc1cc(Cl)cc(N2CCNCC2)c1 | CHRM2 (Homo sapiens, UniProt P08172) | ERK1/2 phosphorylation, agonist | CHO cells | – | – | Emax | < 10%
NNc1nc2ccccc2s1 | Alanine aminotransferase 1 (GPT, Sus scrofa, UniProt P13191) | uncompetitive inhibitor, LDH-coupled | – | added: alpha-ketoglutarate 6.25 to 50 µM varied, alanine 10 mM | – | Kiu | 74 ± 8.2 µM
